Values quoted from earlier work, collected from citations in different studies.
Each numbered part shows a few of the values that one paper quotes. Numbers after ± are the reported error.
UniProt P08684, sequence (whole entry, looked up): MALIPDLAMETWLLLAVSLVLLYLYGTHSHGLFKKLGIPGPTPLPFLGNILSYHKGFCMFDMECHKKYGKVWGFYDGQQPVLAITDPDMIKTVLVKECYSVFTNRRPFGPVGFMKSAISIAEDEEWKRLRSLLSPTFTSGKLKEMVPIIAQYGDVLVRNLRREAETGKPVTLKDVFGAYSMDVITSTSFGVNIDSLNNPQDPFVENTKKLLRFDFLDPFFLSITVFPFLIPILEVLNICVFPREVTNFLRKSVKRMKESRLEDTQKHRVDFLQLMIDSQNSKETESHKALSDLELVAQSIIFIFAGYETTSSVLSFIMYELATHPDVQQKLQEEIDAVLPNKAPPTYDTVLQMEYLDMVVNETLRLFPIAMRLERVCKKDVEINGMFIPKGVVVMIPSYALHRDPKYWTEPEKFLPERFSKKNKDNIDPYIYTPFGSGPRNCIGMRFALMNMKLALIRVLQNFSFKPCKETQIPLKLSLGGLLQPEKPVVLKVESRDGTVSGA
UniProt P04789, sequence (whole entry, looked up): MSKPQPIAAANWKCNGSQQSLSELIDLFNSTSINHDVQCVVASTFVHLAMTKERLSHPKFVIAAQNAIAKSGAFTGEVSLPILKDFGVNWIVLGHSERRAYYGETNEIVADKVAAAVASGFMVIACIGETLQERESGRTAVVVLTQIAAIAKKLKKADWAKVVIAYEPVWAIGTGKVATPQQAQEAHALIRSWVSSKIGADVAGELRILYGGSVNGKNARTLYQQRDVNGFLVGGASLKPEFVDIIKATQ
UniProt P21553, sequence (whole entry, looked up): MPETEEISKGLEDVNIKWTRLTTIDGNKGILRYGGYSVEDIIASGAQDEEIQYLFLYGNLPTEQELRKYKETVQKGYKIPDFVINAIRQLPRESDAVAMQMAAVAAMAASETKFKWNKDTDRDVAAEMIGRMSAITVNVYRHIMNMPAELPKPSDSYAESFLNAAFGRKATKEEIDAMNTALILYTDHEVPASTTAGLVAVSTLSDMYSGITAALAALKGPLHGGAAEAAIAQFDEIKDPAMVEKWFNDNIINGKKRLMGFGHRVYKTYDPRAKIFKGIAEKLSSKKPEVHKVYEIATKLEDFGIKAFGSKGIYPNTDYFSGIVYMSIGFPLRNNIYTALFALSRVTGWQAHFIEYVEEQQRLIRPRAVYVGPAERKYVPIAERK

Study 1 — read-out: peptide-MHC binding; form: peptide
Target: HLA class I histocompatibility antigen, A alpha chain, allele A*26:03 (Homo sapiens, UniProt P04439)
| Sequence | IC50 [µM] |
| --- | --- |
| TKDAERGKL | > 20 |
| QGKQHLHSL | > 20 |
| KRLLLKLDF | > 20 |
| KGHLPLLDK | > 20 |
| EIYRTLYGL | 0.182 |
| YWMGGTTYF | > 20 |
| YQAFRTKVH | > 20 |
| DVRPRHPGY | 0.368 |
| YMREVGAAL | > 20 |
| TVIRFWHAM | 0.001 |
| KRSTPFYTK | > 20 |
| EVPEMFGAE | 0.306 |
| SEFWLNYTA | > 20 |
| SSDDIPPRW | > 20 |
| YISPIFIPM | 0.008 |
| LEKWNLGII | > 20 |
| RVFPGDHFY | > 20 |
| FEIGNGDAG | > 20 |
| IEAGDEVFF | > 20 |
| WENGFKVVL | > 20 |
| KVFDKSLLY | > 20 |
| IHIPGDTLF | > 20 |
| RFRCVGPAP | > 20 |
| SHEGEGIPL | > 20 |
| RWRVYLRRK | > 20 |

Single results of other studies
| Compound | tested on | assay | system | setting | how to read | measurement | value |
| --- | --- | --- | --- | --- | --- | --- | --- |
| CN1CC[C@@]2(C)c3cc(OC(=O)Nc4ccccc4)ccc3N(C)[C@@H]12 |  |  | human |  |  | maximum tolerated dose | 20 mg |
| COc1ccc(C[C@H]2NC[C@H](O)[C@H]2OC(C)=O)cc1 | Plasmodium |  |  |  |  | IC50 | 0.1 µM |
| CC(C)c1cccc(=O)c(O)c1 |  |  | rat female |  |  | no adverse effect level | 14.8 mg/kg/day |
| CN1COCN(Cc2cnc(Cl)s2)/C1=N\[N+](=O)[O-] |  |  | test soil | 0.12 mg/kg nominal, 28 days |  | measured soil concentration | 0.08 mg/kg dry soil |
| CCC(CC)COC(=O)[C@H](C)N[P@](=O)(OC[C@H]1O[C@@](C#N)(c2ccc3c(N)ncnn23)[C@H](O)[C@@H]1O)Oc1ccccc1 | cathepsin A |  |  | intravenous |  | fraction metabolized | ~10% |
| COCCn1c(C)c(C)sc1=NC(=O)C1C(C)(C)C1(C)C | cannabinoid receptor CB1 | agonist |  |  |  | EC50 | > 1 µM |
| Oc1c(Cl)cc(-c2ccc(Cl)c(Cl)c2)cc1Cl |  |  | rat liver | 1 µM |  | glucuronidation rate | 23 pmol/min/mg protein |
| N#C/C(=C/c1ccc(O)c(O)c1)C(=O)NCc1ccccc1 | hepatitis C virus |  | HCV-infected cells | concentration not given |  | STAT3 activity | decreased |
| O=C[C@H](O)COP(=O)(O)O | Triosephosphate isomerase, glycosomal (Trypanosoma brucei brucei, UniProt P04789) | substrate |  | pH 7.5 |  | Km | 330 µM |
| N[C@@H](CO)C(=O)O | Tsr chemoreceptor | binding, high affinity, FRET |  |  |  | EC50 | ~0.1 µM |
| NC1CCCCC1N.O=C([O-])C(=O)[O-].[Pt+2] (centres unmarked) |  | measured: free platinum | mouse, plasma ultrafiltrate | intravenous, 8.34 mg Pt/kg |  | Vd | 0.416 L/kg |
| Cc1nnc2n1-c1ccc(Cl)cc1C(c1ccccc1Cl)=NC2 |  |  | human | with: ritonavir | reference: with over without ritonavir | AUC(0-t) ratio | 40.7 |
| O=C(O)CC(=O)C(=O)O | citrate synthase H222Q mutant | binding, fluorescence titration |  | 20 °C |  | Kd | 33 µM |
| COC(=O)[C@@H]1C[C@H](OC(C)=O)C(=O)[C@H]2[C@@]1(C)CC[C@H]1C(=O)O[C@H](c3ccoc3)C[C@]21C | kappa opioid receptor V108A |  |  |  |  | Ki | 0.269 ± 0.025 µM |
| CNCCN1C(=O)[C@H](OC(C)=O)[C@H](c2ccc(OC)cc2)Sc2ccccc21 | Cytochrome P450 3A4 (CYP3A4, Homo sapiens, UniProt P08684) | enzyme activity, inhibitor |  |  |  | Ki | 2.43 µM |
| C[C@@H]1[C@H](O)[C@@H](C)/C=C/C=C/C=C/C=C/C=C/C=C/C=C/[C@H](O[C@@H]2O[C@H](C)[C@@H](O)[C@H](N)[C@@H]2O)C[C@@H]2O[C@](O)(C[C@@H](O)C[C@@H](O)[C@H](O)CC[C@@H](O)C[C@@H](O)CC(=O)O[C@H]1C)C[C@H](O)[C@H]2C(=O)O |  |  | mouse |  |  | LD50 | 4.5 mg/kg |
| CC(C)(COP(=O)(O)OP(=O)(O)OCC1OC(n2cnc3c(N)ncnc32)C(O)C1OP(=O)(O)O)C(O)C(=O)NCCC(=O)NCCSC(=O)CC(O)(CC(=O)O)C(=O)O (centres unmarked) | gltA (Thermoplasma acidophilum, UniProt P21553) | substrate |  | saturating, pH 8, 20 °C |  | hydrolysis rate constant | 9.2 s⁻¹ |
| CCCCCCC(C)(C)c1cc(OC)c(C2C=C(CO)C3CC2C3(C)C)c(OC)c1 (centres unmarked) | cannabinoid CB1 receptor, rat | binding |  |  |  | Ki | > 10 µM |
| Cc1nnc2n1-c1ccc(Cl)cc1C(c1ccccc1)=NC2 |  |  | human | with: ritonavir | reference: with over without ritonavir | AUC(0-t) ratio | 2.48 |
| O=C(O)C(F)(F)C(F)(F)C(F)(F)C(F)(F)C(F)(F)F | CYP2C19 | inhibitor |  | Tox21 screening |  | IC50 | inactive |
| Oc1cccc(-c2ccc(Cl)cc2)c1 |  |  | rat liver | 1 µM |  | glucuronidation rate | 100 pmol/min/mg protein |
| Oc1ccc2c3c1O[C@H]1[C@@H](O)CC[C@@]4(O)[C@@H](C2)N(CC2CCC2)CC[C@]314 |  |  |  |  |  | logD | 0.81 |
| O=S(=O)(O)C(F)(F)C(F)(F)C(F)(F)C(F)(F)C(F)(F)C(F)(F)F | CYP2C19 | inhibitor |  |  |  | IC50 | 82.8 ± 5.61 µM |
| C[n+]1cc2c3c(ccc2c2ccc4cc5c(cc4c21)OCO5)OCO3 |  |  | mouse | intraperitoneal |  | LD50 | 18 mg/kg |
| CC1(C)NC(=O)C(Cc2ccc(O)cc2)NC(=O)CNC(=O)C(Cc2ccc3ccccc3c2)NC(=O)C(CCCN=C(N)N)NC1=O (centres unmarked) | human CXCR4 Y45A mutant |  |  |  |  | EC50 | 46 µM |

Some of these lines once more (single results of other studies):
| Compound | tested on | assay | system | setting | how to read | measurement | value |
| --- | --- | --- | --- | --- | --- | --- | --- |
| O=C(O)C(F)(F)C(F)(F)C(F)(F)C(F)(F)C(F)(F)F | CYP2C19 | inhibitor |  | Tox21 screening |  | IC50 | inactive |
| COc1ccc(C[C@H]2NC[C@H](O)[C@H]2OC(C)=O)cc1 | Plasmodium |  |  |  |  | IC50 | 0.1 µM |
| CN1CC[C@@]2(C)c3cc(OC(=O)Nc4ccccc4)ccc3N(C)[C@@H]12 |  |  | human |  |  | maximum tolerated dose | 20 mg |
| CCC(CC)COC(=O)[C@H](C)N[P@](=O)(OC[C@H]1O[C@@](C#N)(c2ccc3c(N)ncnn23)[C@H](O)[C@@H]1O)Oc1ccccc1 | cathepsin A |  |  | intravenous |  | fraction metabolized | ~10% |
| CC(C)(COP(=O)(O)OP(=O)(O)OCC1OC(n2cnc3c(N)ncnc32)C(O)C1OP(=O)(O)O)C(O)C(=O)NCCC(=O)NCCSC(=O)CC(O)(CC(=O)O)C(=O)O (centres unmarked) | gltA (Thermoplasma acidophilum, UniProt P21553) | substrate |  | saturating, pH 8, 20 °C |  | hydrolysis rate constant | 9.2 s⁻¹ |
| O=C(O)CC(=O)C(=O)O | citrate synthase H222Q mutant | binding, fluorescence titration |  | 20 °C |  | Kd | 33 µM |
| Oc1c(Cl)cc(-c2ccc(Cl)c(Cl)c2)cc1Cl |  |  | rat liver | 1 µM |  | glucuronidation rate | 23 pmol/min/mg protein |
